Earlier results as cited in several papers.
Lines come from different studies, so protocols differ. ± gives the spread as reported.
UniProt Q05941, sequence (whole entry, looked up): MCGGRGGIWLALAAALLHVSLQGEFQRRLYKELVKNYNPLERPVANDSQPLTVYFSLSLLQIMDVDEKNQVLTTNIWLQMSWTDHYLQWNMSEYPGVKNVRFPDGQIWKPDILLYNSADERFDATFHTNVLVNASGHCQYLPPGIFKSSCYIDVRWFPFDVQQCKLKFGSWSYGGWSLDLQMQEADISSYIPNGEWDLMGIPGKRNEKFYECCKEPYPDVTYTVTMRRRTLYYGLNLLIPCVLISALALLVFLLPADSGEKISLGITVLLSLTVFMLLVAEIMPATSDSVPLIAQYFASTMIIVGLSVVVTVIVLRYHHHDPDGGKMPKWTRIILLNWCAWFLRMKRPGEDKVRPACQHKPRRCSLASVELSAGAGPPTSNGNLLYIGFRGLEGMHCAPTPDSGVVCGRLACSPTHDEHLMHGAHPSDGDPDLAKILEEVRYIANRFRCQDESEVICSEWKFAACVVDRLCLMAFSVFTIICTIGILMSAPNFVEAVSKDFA

Structure (SMILES) | tested on | assay | test system | conditions | measurement | value
O=C(O)[C@H](c1ccccc1)[C@H]1CCCCN1 | – | – | human, CES1 wild type, plasma | oral, 10 mg methylphenidate, single dose, median | Tmax | 2.5 h
c1ccc2c(c1)Cc1ccccc1-2 | – | – | – | experimental mean | log Kow | 4.18
COc1cccc2c3c(=O)n(C4C5(C)CCC(C5)C4(C)C)ccc3n(CCN3CCOCC3)c12 (stereo not drawn) | CB1 receptor | binding | – | – | Ki | 16 nM
CCN(CC)CCNC(=O)c1cc(Cl)c(N)cc1OC | – | – | dog | – | fraction unbound | 0.294
CC(=O)n1c2c(c3cc(C(=O)N4CCC(C)CC4)ccc31)CN(C1CCCC1)C2 | CB2 receptor | binding | – | – | Ki | 88.1 nM
CN1[C@@H]2CC[C@H]1C[C@@H](OC(=O)c1c[nH]c3ccccc13)C2 | – | – | dog | – | fraction unbound | 0.047
O=C(O)C(F)(F)C(F)(F)C(F)(F)C(F)(F)C(F)(F)C(F)(F)C(F)(F)C(F)(F)C(F)(F)F | CYP2C9 | inhibitor | – | Tox21 screening | IC50 | 2200 ± 550 nM
CN1CCc2[nH]c3ccccc3c2CC1.O=C(O)/C=C/C(=O)O | Chrna7 (Rattus norvegicus, UniProt Q05941) | inhibitor | – | with: 100 µM acetylcholine | Hill coefficient | 1.6 ± 0.1
FC(F)OC(F)(F)C(F)Cl (stereo not drawn) | CYP1A2 | inhibitor | – | Tox21 screening | IC50 | 35500 nM
CCCCCOc1ccc(-c2ccc(-c3ccc(C(=O)N[C@H]4C[C@@H](O)[C@@H](O)NC(=O)[C@@H]5[C@@H](O)[C@@H](C)CN5C(=O)[C@H]([C@@H](C)O)NC(=O)[C@H]([C@H](O)[C@@H](O)c5ccc(O)cc5)NC(=O)[C@@H]5C[C@@H](O)CN5C(=O)[C@H]([C@@H](C)O)NC4=O)cc3)cc2)cc1 | – | – | end-stage renal disease patients | 50 mg single dose, predialysis | volume of distribution | 37.9 ± 3.8 L
O=C1NC(=O)C(c2ccccc2)(c2ccccc2)N1 | – | – | dog | – | fraction unbound | 0.259
O=C(O)C(F)(F)C(F)(F)C(F)(F)C(F)(F)C(F)(F)C(F)(F)C(F)(F)C(F)(F)F | CYP2D6 | inhibitor | – | Tox21 screening | IC50 | inactive

Repeated from above:
Structure (SMILES) | tested on | assay | test system | conditions | measurement | value
CC(=O)n1c2c(c3cc(C(=O)N4CCC(C)CC4)ccc31)CN(C1CCCC1)C2 | CB2 receptor | binding | – | – | Ki | 88.1 nM
